Values quoted from earlier work as cited in several papers.
Each numbered part shows a few of the values that one paper quotes.

Set 1 — organism: Cryptosporidium parvum; method: high-throughput screen; tested at: concentration not given
Compound	activity
NC(=O)c1ncn([C@@H]2O[C@H](CO)[C@@H](O)[C@H]2O)n1	inactive
Nc1ccn([C@@H]2O[C@H](CO)[C@@H](O)[C@@H]2O)c(=O)n1	inactive
C[C@@H]1O[C@@H](OC[C@H]2O[C@@H](Oc3c(-c4ccc(O)c(O)c4)oc4cc(O)cc(O)c4c3=O)[C@H](O)[C@@H](O)[C@@H]2O)[C@H](O)[C@H](O)[C@H]1O	inactive

Other studies, line by line
Compound	target or system	effect on	method	species	dose	quantity	value
Cn1c(-c2csc(C3CCN(Cc4nc5ncccc5[nH]4)CC3)n2)nc2ccccc21	mitochondrial complex I	–	cell-based	–	–	IC50	> 30 µM
CCNCCc1ccc(CN(CC)c2cc(OC)ccc2[C@@H]2CCc3cc(O)ccc3C2)cc1	–	–	local investigator assessed	human, ER-positive HER2-negative breast cancer	dose not given	objective response rate	6.9%
CC(=O)Nc1ncc(CN2CCC[C@H](Cc3cc(C)nc(C)c3)C2)s1	HEXA	–	–	–	–	IC50	> 10 µM
CCCCCCCC1(OC)OC(=O)c2cc(OC)cc(OC)c21 (stereo not drawn)	MCF7	cytotoxicity	–	–	–	IC50	54 µM
C[C@H](c1cccc(C#N)c1)n1cc(Cl)cc(C(N)=O)c1=N	ADRA1D	–	–	–	–	Ki	0.0016 µM
CCOC(=O)c1cc2cc(-c3cc(C(=O)NCc4ccc(C(=O)O)cc4)nn3C)ccc2[nH]1	MMP13	cellular activity	–	–	–	IC50	0.031 µM

Some of these lines once more (other studies, line by line):
Compound	target or system	effect on	method	species	dose	quantity	value
C[C@H](c1cccc(C#N)c1)n1cc(Cl)cc(C(N)=O)c1=N	ADRA1D	–	–	–	–	Ki	0.0016 µM
